Assay results collected from several papers.
Each numbered part is a random draw from the data of one study; scales do not carry over between parts.
Sequence of UniProt P42336 (whole entry, unmodified, looked up): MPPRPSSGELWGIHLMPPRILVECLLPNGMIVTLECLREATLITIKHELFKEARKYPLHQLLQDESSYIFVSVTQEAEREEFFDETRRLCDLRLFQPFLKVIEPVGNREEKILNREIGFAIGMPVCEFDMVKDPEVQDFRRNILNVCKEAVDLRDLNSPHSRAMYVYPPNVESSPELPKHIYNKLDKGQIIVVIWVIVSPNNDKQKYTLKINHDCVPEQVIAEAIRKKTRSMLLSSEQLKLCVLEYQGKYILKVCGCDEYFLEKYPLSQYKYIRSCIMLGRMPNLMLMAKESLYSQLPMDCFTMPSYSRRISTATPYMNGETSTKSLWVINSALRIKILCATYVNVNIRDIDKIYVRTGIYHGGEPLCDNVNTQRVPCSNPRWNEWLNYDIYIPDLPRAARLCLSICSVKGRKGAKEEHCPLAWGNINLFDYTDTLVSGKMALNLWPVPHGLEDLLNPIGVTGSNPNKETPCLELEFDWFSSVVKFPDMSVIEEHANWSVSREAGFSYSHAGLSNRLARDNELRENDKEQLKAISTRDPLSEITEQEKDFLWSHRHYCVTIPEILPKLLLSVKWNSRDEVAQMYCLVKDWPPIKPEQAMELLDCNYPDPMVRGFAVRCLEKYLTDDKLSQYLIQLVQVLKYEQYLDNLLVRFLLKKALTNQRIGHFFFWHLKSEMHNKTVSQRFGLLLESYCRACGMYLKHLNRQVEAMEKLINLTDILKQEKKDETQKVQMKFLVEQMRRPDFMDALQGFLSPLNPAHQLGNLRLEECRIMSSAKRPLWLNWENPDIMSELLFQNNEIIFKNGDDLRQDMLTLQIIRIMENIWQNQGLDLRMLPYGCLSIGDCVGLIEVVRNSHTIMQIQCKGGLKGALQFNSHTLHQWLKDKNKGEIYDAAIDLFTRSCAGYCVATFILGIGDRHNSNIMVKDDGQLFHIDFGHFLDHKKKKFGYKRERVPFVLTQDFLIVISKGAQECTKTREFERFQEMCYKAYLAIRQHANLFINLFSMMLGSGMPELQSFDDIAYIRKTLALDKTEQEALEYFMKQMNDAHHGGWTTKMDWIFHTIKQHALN
Sequence of UniProt P50750 (whole entry, looked up): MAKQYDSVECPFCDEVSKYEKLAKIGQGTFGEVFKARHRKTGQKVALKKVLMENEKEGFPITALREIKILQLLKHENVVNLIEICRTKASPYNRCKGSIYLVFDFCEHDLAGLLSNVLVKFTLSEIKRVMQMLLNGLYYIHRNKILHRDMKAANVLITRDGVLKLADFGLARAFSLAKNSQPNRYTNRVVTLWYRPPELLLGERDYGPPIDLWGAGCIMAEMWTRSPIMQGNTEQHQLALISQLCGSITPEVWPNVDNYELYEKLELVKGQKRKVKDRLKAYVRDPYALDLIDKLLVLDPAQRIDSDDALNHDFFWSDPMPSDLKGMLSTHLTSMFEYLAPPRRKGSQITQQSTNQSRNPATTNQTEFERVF
Sequence of UniProt Q16659 (whole entry, looked up): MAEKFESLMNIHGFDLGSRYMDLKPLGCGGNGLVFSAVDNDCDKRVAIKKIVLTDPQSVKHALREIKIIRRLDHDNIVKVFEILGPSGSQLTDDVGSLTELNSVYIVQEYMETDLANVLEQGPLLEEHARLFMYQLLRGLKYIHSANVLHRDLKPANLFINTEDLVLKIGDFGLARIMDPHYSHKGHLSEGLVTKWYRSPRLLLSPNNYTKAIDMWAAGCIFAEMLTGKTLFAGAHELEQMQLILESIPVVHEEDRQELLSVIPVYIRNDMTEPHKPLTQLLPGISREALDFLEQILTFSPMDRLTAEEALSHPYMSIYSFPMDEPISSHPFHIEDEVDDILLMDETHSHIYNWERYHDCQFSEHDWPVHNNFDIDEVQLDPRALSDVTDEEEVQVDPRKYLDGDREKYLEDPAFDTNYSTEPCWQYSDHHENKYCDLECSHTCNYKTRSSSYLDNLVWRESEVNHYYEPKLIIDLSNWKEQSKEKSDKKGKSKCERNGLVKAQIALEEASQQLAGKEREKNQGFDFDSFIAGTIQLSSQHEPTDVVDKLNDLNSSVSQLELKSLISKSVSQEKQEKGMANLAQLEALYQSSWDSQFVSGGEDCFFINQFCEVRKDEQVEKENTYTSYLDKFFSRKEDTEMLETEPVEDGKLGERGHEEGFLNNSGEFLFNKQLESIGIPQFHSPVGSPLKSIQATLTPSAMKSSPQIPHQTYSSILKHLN
Sequence of UniProt P08069 (whole entry, looked up): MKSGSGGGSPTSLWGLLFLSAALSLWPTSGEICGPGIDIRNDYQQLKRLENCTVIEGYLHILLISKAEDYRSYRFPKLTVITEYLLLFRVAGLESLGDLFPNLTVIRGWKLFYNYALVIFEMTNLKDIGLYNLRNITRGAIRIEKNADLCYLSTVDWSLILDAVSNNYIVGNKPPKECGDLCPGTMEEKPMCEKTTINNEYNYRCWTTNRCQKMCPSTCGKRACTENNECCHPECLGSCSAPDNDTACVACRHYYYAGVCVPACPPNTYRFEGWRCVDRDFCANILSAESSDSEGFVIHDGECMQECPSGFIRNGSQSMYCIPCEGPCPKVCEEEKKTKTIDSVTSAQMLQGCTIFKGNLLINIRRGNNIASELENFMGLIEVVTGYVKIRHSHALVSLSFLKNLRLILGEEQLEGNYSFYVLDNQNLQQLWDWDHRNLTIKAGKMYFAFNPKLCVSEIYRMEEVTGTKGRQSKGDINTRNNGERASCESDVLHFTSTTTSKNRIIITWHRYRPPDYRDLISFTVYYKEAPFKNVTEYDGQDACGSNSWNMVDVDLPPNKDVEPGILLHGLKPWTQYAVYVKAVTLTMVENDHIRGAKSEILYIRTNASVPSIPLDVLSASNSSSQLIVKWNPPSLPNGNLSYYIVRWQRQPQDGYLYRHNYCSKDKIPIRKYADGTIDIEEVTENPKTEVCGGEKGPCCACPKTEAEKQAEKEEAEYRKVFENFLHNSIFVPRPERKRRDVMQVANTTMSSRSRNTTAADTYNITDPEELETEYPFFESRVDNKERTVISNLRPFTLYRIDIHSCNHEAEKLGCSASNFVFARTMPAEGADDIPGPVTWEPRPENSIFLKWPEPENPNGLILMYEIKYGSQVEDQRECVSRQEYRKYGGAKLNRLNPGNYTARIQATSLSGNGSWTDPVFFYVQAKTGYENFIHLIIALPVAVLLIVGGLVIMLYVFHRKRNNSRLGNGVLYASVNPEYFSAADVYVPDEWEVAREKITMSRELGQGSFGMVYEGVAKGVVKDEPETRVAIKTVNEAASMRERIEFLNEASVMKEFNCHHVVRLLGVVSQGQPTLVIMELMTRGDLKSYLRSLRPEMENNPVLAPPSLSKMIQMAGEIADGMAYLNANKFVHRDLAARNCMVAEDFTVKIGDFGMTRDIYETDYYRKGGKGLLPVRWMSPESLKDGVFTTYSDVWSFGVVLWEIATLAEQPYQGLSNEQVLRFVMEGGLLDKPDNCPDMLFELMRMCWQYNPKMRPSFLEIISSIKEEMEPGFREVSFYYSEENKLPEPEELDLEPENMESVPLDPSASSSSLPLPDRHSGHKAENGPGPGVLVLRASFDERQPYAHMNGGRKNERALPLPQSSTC
Sequence of UniProt Q9UPE1 (whole entry, looked up): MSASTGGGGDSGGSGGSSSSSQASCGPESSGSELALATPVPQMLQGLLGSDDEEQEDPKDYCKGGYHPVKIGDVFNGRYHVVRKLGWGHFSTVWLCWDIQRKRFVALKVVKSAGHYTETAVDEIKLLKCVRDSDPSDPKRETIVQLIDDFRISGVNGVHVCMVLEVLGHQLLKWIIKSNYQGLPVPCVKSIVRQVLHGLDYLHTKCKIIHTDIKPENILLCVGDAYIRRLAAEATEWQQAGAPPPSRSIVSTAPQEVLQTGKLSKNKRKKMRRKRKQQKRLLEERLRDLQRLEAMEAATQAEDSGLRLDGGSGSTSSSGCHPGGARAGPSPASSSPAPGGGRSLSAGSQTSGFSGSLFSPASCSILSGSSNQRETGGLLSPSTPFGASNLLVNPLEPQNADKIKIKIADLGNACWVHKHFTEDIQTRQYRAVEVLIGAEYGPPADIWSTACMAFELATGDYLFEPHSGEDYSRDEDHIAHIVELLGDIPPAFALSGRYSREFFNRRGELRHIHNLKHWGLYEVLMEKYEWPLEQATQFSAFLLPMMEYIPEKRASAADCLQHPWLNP
Sequence of UniProt P11309 (whole entry, looked up): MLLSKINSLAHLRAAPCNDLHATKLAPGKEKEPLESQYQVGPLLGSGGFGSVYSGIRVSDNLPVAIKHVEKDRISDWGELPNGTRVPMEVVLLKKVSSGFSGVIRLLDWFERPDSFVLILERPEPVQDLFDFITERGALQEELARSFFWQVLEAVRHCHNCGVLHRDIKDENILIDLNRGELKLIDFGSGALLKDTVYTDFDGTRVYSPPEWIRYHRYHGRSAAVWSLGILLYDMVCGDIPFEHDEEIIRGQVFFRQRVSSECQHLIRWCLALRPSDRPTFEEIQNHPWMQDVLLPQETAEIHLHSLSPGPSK

Sample 1 — cell line: Huh-7; concentration: 10 µM; time: 24 h
| Structure (SMILES) | viability [%] |
| --- | --- |
| O=C(CCCN1CC=C(n2c(=O)[nH]c3ccccc32)CC1)c1ccc(F)cc1 | 93.6 |
| CC(C(=O)O)c1cccc(Oc2ccccc2)c1 (stereo not drawn) | 102 |
| C[C@H](N)[C@H](O)c1cccc(O)c1 | 91.5 |
| OC[C@H]1O[C@H](O[C@]2(CCl)O[C@H](CCl)[C@@H](O)[C@@H]2O)[C@H](O)[C@@H](O)[C@H]1Cl | 102 |
| COc1cnc(NS(=O)(=O)c2ccc(N)cc2)nc1 | 97.5 |
| CC[C@H]1OC(=O)[C@H](C)[C@@H](O[C@H]2C[C@@](C)(OC)[C@@H](O)[C@H](C)O2)[C@H](C)[C@@H](O[C@@H]2O[C@H](C)C[C@H](N(C)C)[C@H]2O)[C@](C)(O)C[C@@H](C)CN(C)[C@H](C)[C@@H](O)[C@]1(C)O | 103 |
| NS(=O)(=O)c1cc2c(cc1C(F)(F)F)NCNS2(=O)=O | 98 |
| COC(=O)C1=C(C)NC(C)=C(C(=O)OCCN(C)Cc2ccccc2)C1c1cccc([N+](=O)[O-])c1 (stereo not drawn) | 94.8 |
| CN(C)CCOC(=O)C(c1ccccc1)C1(O)CCCC1 (stereo not drawn) | 101 |
| C/C=C/c1ccc(OC)cc1 | 103 |
| CNC(=C[N+](=O)[O-])NCCSCc1ccc(CN(C)C)o1 | 99.9 |
| COc1ccnc(C[S+]([O-])c2nc3ccc(OC(F)F)cc3[nH]2)c1OC (stereo not drawn) | 95.4 |

Sample 2 — cell line: A-375; concentration: 100 µM; time: 18 h
| SMILES | viability |
| --- | --- |
| CCCCCCCCCCCCCCCCCCCCCCO | 96.1% |
| N[C@@H]1CON=C1O | 110% |
| O=C(O[C@H]1CN2CCC1CC2)N1CCc2ccccc2[C@@H]1c1ccccc1 | 8.9% |
| CCOc1nc2cccc(C(=O)OCc3oc(=O)oc3C)c2n1Cc1ccc(-c2ccccc2-c2noc(=O)[nH]2)cc1 | 107% |
| N=C1CCCN1Cc1[nH]c(=O)[nH]c(=O)c1Cl | 86.6% |
| CC(=O)Nc1ccc(OC(=O)c2ccccc2OC(C)=O)cc1 | 99.3% |
| C[Se]CC[C@H](N)C(=O)O | 94.9% |
| Clc1ccc2nsnc2c1NC1=NCCN1 | 101% |
| CC(=O)O[C@]1(C(C)=O)CC[C@H]2[C@@H]3CCC4=CC(=O)CCC4=C3[C@@H](c3ccc(N(C)C)cc3)C[C@@]21C | 87.8% |
| CNS(=O)(=O)Cc1ccc2[nH]cc(CCN(C)C)c2c1 | 88.3% |
| CC(=O)OCC(=O)[C@@]12OC(C)(C)O[C@@H]1C[C@H]1[C@@H]3C[C@H](F)C4=CC(=O)C=C[C@]4(C)[C@@]3(F)[C@@H](O)C[C@@]12C | 103% |
| CCCCOc1ccc(C(=O)CCN2CCCCC2)cc1 | 43.5% |
| C#C[C@]1(O)CC[C@H]2[C@@H]3CCC4=C(CCC(=O)C4)[C@H]3CC[C@@]21C | 59.6% |
| CCCC1O[C@@H]2C[C@H]3[C@@H]4CCC5=CC(=O)C=C[C@]5(C)[C@H]4[C@@H](O)C[C@]3(C)[C@]2(C(=O)CO)O1 (stereo partly drawn) | 37.9% |

Sample 3 — effect on: cell-free assay; technique: competition with immobilised ligand; concentration: 1 µM
Compound: C[C@@H]1CN(c2cc(-c3nn(C)c4ccc(OC5(C)CC5)cc34)ncn2)C[C@H](C)O1
| target | remaining binding [%] |
| --- | --- |
| MAP4K3 (Homo sapiens, UniProt Q8IVH8) | 100 |
| PIM1 (Homo sapiens, UniProt P11309) | 77 |
| FLT3 (Homo sapiens, UniProt P36888, N841I) | 85 |
| PIK3CA (Homo sapiens, UniProt P42336, E545A) | 100 |
| SRPK3 (Homo sapiens, UniProt Q9UPE1) | 98 |
| MAP4K1 (Homo sapiens, UniProt Q92918) | 100 |
| PRKACA (Homo sapiens, UniProt P17612) | 95 |
| CDK9 (Homo sapiens, UniProt P50750) | 84 |
| PIP5K1A (Homo sapiens, UniProt Q99755) | 100 |
| CDK7 (Homo sapiens, UniProt P50613) | 100 |
| IGF1R (Homo sapiens, UniProt P08069) | 100 |
| PIK3CA (Homo sapiens, UniProt P42336, E545K) | 79 |
| MAPK6 (Homo sapiens, UniProt Q16659) | 97 |

Sample 4 — organism: Sarcocystis neurona; effect on: parasite growth; concentration: 10 µM; time: 96 h
| SMILES | inhibition [%] |
| --- | --- |
| C=CCc1ccc(O)c(-c2ccc(O)c(CC=C)c2)c1 | -16.4 |
| CCCc1c(OCCCCc2nnn[nH]2)ccc(C(C)=O)c1O | -15.5 |
| Cc1cc(NS(=O)(=O)c2ccc(N)cc2)no1 | -11.9 |
| CC[C@H]1OC(=O)[C@H](C)[C@@H](O[C@H]2C[C@@](C)(OC)[C@@H](O)[C@H](C)O2)[C@H](C)[C@@H](O[C@@H]2O[C@H](C)C[C@H](N(C)C)[C@H]2O)[C@](C)(OC)C[C@@H](C)C(=O)[C@H](C)[C@@H](O)[C@]1(C)O | -1.5 |
| C#C[C@]1(O)CC[C@H]2[C@@H]3[C@H](C)CC4=C(CCC(=O)C4)[C@H]3CC[C@@]21C | -6.2 |
| CCN(CC)CCNC(=O)c1ccc(N)cc1 | -8.6 |
| Clc1ccc(COC(Cn2ccnc2)c2ccc(Cl)cc2Cl)cc1 (stereo not drawn) | 1.4 |
| COc1cc2nc(N(C)CCCNC(=O)C3CCCO3)nc(N)c2cc1OC (stereo not drawn) | -11.5 |
| C=CC1=C(C(=O)O)N2C(=O)[C@@H](NC(=O)/C(=N\OCC(=O)O)c3csc(N)n3)[C@H]2SC1 | -11.1 |
| CCOC(=O)[C@H](CCc1ccccc1)N[C@H]1CCc2ccccc2N(CC(=O)O)C1=O | -14 |
| COc1ccc(OC)c(C(O)CNC(=O)CN)c1 (stereo not drawn) | -17.7 |
| O=[N+]([O-])c1cccc2cn[nH]c12 | -5 |
| Cc1cccc(Nc2ccncc2S(=O)(=O)NC(=O)NC(C)C)c1 | -15.2 |
| CC1(C)S[C@@H]2[C@H](NC(=O)COc3ccccc3)C(=O)N2[C@H]1C(=O)O | -0.4 |
| COCCCC/C(=N\OCCN)c1ccc(C(F)(F)F)cc1 | -3.1 |
| CCN1CCN(C(=O)N[C@@H](C(=O)N[C@@H]2C(=O)N3[C@@H]2SC(C)(C)[C@@H]3C(=O)O)c2ccccc2)C(=O)C1=O | -17.9 |

Sample 5 — mode: antagonist
Target: Beta-1 adrenergic receptor (ADRB1, Homo sapiens, UniProt P08588)
Sequence of UniProt P08588 (whole entry, looked up): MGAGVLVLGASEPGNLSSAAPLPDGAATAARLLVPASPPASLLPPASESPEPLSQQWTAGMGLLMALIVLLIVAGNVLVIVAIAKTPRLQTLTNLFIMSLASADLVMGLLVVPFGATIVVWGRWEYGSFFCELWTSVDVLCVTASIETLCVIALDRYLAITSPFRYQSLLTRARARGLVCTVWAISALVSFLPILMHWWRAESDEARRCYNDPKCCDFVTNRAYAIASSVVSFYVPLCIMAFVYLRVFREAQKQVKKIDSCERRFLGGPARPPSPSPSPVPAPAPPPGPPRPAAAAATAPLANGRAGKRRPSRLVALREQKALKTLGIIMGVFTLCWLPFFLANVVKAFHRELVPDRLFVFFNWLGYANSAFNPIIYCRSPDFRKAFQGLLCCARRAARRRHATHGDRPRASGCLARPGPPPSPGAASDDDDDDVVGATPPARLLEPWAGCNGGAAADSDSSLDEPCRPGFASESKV
| Compound | IC50 [µM] |
| --- | --- |
| COc1ccccc1N1CCN([S+](=O)([O-])c2ccc(C)cc2OC)CC1 | ≥ 100 |
| COCCNCc1ccc(-c2cc3nccc(Oc4ccc(NC(=O)C5(C(=O)Nc6ccc(F)cc6)CC5)cc4F)c3s2)nc1 | ≥ 100 |
| COc1cc(CNCCCO)ccc1OCC(O)CN1CCSCC1 (stereo not drawn) | ≥ 100 |
| Cn1cc(C(=O)N2CCn3nc(C(O)CO)cc3C2)c(=O)[nH]c1=O (stereo not drawn) | ≥ 100 |
| Cc1oc(C(O)c2cccc(O)c2)nc1C(=O)N1CCOCC1 (stereo not drawn) | ≥ 100 |
| COc1ccccc1-c1ncc2c(n1)OCCN(c1cccc(C(F)(F)F)c1)C2=O | ≥ 100 |
| O=C1COc2ccc(-c3ccsc3)nc2CN1 | ≥ 100 |
| Cc1noc2c(N3CCOCC3)cc(-c3ccc(F)cc3)nc12 | 5.01 |
| CC1=CC(C)(C)NC(Nc2nc(-c3ccccc3)c3ccccc3n2)=N1 | ≥ 100 |
| O=C1Nc2ccc(I)cc2/C1=C/c1cc(Br)c(O)c(Br)c1 | ≥ 100 |
| COc1ccccc1N1CCN(c2ccc3ccccc3n2)CC1 | ≥ 100 |
| CCN(CC)C(=O)Nc1ccc(OCC(O)CNC(C)(C)C)c(C(C)=O)c1 (stereo not drawn) | ≥ 100 |
| CN(Cc1ccc(CCN)cc1)Cc1ccc2nsnc2c1 | ≥ 100 |

Sample 6 — species: human; sample: microsomes or S9; concentration: 2 µM; time: 0.5 h
| Compound | remaining compound [%] |
| --- | --- |
| COC(=O)[C@@]1(C)CCC(C(=O)Nc2ccccc2C(=O)O)C1(C)C (stereo partly drawn) | 41.5 |
| O=C(c1cccnc1Cl)N1CCCCC1c1ccccc1 (stereo not drawn) | 63.8 |
| CCCC(NNC(=O)c1cnccn1)C(=O)OC (stereo not drawn) | 0.836 |
| CN(Cc1ccccc1-n1cccn1)C(=O)CN1CC2(CCCC2)CC1=O | > 100 |
| CCN(CC)S(=O)(=O)c1ccc(C)c(N2C(=O)CC(C#N)=C2N)c1 | 25.8 |
| CC[C@H](C)[C@@H](CO)NC(=O)c1cc(C)nc(C)c1 | 94.2 |
| O=c1oc2ccccc2n1Cc1c(-c2ccc(F)cc2)nc2ccccn12 | 84.9 |
| CCc1noc(CC)c1CC(=O)NCC1(CC)CCCCC1 | 0.0613 |
| O=C(NC1CCCC1)C1(Cc2ccccn2)CCOCC1 | 87.8 |
| O=C(CC(c1ccccc1)c1ccccc1)N1CCN(c2ccccn2)CC1 | 10.3 |
| Cc1c(C(=O)OC(C)C)sc2ncnc(N3CCCCC3)c12 | 0.14 |
| COc1nc(NC(C)C)nc(N2C(=N)NC(=O)C2C)n1 (stereo not drawn) | > 99.9 |
| CCOC(=O)C1SC2(C(F)(F)F)CC1(O)C(C)(C)CO2 (stereo not drawn) | 91 |
| Brc1cnn(CC2CCN(Cc3cncs3)CC2)c1 | 99.9 |
| COc1ccccc1Cn1ccc2nc3ccn(-c4ncn[nH]4)c(=O)c3cc2c1=O | 79.9 |
| Cc1n[nH]c(=O)c(C(=O)NC2CCc3nc(C(C)(C)C)cn3C2)c1C (stereo not drawn) | 83.6 |
| CCN1CCN(C(=O)c2cc3c(=O)n4cc(C)ccc4nc3n2C)CC1 | 94.2 |

Sample 7 — effect on: enzyme activity; mode: inhibitor; concentration: 0.5 µM; reference: control
Target: Lymphokine-activated killer T-cell-originated protein kinase (PBK, Homo sapiens, UniProt Q96KB5)
Residues (Q96KB5 1-322): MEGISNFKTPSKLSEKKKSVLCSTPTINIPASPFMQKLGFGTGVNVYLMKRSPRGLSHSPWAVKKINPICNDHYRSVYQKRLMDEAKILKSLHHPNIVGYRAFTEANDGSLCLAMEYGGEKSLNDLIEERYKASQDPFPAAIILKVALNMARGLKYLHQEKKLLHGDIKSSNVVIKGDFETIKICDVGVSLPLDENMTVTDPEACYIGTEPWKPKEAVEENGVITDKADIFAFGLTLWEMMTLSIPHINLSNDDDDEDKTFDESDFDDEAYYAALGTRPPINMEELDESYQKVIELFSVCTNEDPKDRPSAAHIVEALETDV
| SMILES | remaining activity [%] |
| --- | --- |
| Cn1cc(/C=C2\C(=O)Nc3ccc(S(N)(=O)=O)cc32)c2ccccc21 | 99.6 |
| CC(C)[C@H](CO)Nc1nc(Nc2cccc(Cl)c2)c2ncn(C(C)C)c2n1 | 102 |
| Cn1cnc2cc3c(Nc4cccc(Br)c4)ncnc3cc21 | 102 |
| CCN1/C(=C/C(C)=O)Sc2ccc(OC)cc21 | 94.8 |
| CCC(=O)Nc1ccc2ncnc(Nc3cccc(Br)c3)c2c1 | 96.2 |
| COc1cc2ncnc(Nc3ccc(OCc4ccccc4)cc3)c2cc1OC | 109 |
| O=C1NC(=O)/C(=C/c2ccc3nccnc3c2)S1 | 93 |
| O=c1cc(N2CCOCC2)oc2c1ccc1ccccc12 | 103 |
| COc1ccc(Cl)cc1NC(=O)Nc1cc(C)nc2ccccc12 | 98.5 |
| CS(=O)(=O)CCNCc1ccc(-c2ccc3ncnc(Nc4ccc(OCc5cccc(F)c5)c(Cl)c4)c3c2)o1 | 105 |
| CCOc1cc2ncnc(Nc3cccc(Br)c3)c2cc1OCC | 102 |
